Published values pooled from the literature.
Compare with care: the assays were run in different laboratories. Numbers after ± are the reported error.
Cell line: HT-29

NS(=O)(=O)c1ccc(Nc2nc(OCC3CCCCC3)c3nc[nH]c3n2)cc1 — GI50 (cell growth, SRB; 72 h): 13.3 ± 3.4 µM
COc1ccccc1-c1cc(-c2cccc(Br)c2)nc2nc[nH]c(=O)c12 — inhibition (cell growth or viability; 50 µM): 98%
CS(=O)(=O)N1CCN(Cc2cc3nc(-c4cccc5[nH]ncc45)nc(N4CCOCC4)c3s2)CC1 — GI50 (cell growth or viability, SRB; 72 h): 0.25 µM
KSPNPRF (Cy5.5-labelled) — association rate constant (flow cytometry; peptide; 5 µM, 4 °C, Cy5.5 labelled): 0.14 min⁻¹
CC(C)CN(C(=O)c1cccnc1)c1c2ccccc2c(=O)n2c1[nH]c1ccccc12 — GI50 (cell growth or viability, MTT): ~20 µM
N=C(N)NCCC[C@H](NC(=O)[C@@H](N)CCC(N)=O)C(=O)N[C@@H](Cc1c[nH]cn1)C(=O)N[C@@H](CCCCN)C(=O)N1CCC[C@H]1C(=O)N[C@@H](CCCNC(=N)N)C(=O)N[C@@H](CCC(=O)O)C(=O)NCC(=O)NCC(=O)NCC(=O)NCC(=O)N[C@@H](CO)C(=O)N[C@@H](CCCCNC(=O)c1ccc(Oc2ccc3c4nc5nc(nc6[nH]c(nc7nc(nc([nH]4)c3c2)-c2ccccc2-7)c2ccccc62)-c2ccccc2-5)cc1)C(N)=O — intracellular fluorescence increase (2 µM, 10 min plus 6 h, 37 °C; reference: 10 min uptake only): 3 fold
CCOc1ccccc1-c1cc(-c2cccc(Br)c2)nc(N)c1C#N — inhibition (cell growth or viability; 50 µM): 78.7%
Cn1c(=O)n(-c2ccc(C(C)(C)C#N)cc2)c2c3cc(-c4cnc5ccccc5c4)ccc3ncc21 — GI50 (cell growth or viability, SRB; 72 h): 0.014 µM
Cc1ccc(-n2nc(C(C)(C)C)cc2NC(=O)Nc2ccc(OCCN3CCOCC3)c3ccccc23)cc1 — maximum inhibition (IL-8 secretion; 1 µg/mL, with: IL-1β 1000 ng/mL): 33%
Cc1[nH]c(=O)c(C#N)cc1-c1ccncc1 — inhibition (cell growth or viability; 50 µM): 10%

For quick reference, copied from above:
KSPNPRF (Cy5.5-labelled) — association rate constant (flow cytometry; peptide; 5 µM, 4 °C, Cy5.5 labelled): 0.14 min⁻¹
